Experimental data gathered from unrelated publications.
Each line is one published result; not all experiments were run side by side. Several values in a cell are separate wells, animals, samples, runs or records. Numbers after ± are the reported error.

SMILES = Cc1nc(-c2ccc(OCC(C)C)c(C#N)c2)sc1C(=O)O; test system = human, plasma; conditions = oral, 40 mg, together with: high-fat meal; how to read = reference: fasting; quantity = AUC(0-inf) reduction; result = 12% and ~12%
SMILES = CC(C)=CCC/C(C)=C/CC/C(C)=C/CC[C@@](C)(O)CCC1=C(C)C(=O)C(C)=C(C)C1=O; test system = healthy human, plasma; conditions = oral, 400 mg, single dose, alone; quantity = AUC(0-inf) geometric LS mean; result = 3850 ng·h/mL
SMILES = Cc1cc(Nc2ncnc3ccc(NC4=NC(C)(CO)CO4)cc23)ccc1Oc1ccn2ncnc2c1 (stereo not shown); test system = human, plasma; conditions = oral, 300 mg tucatinib single dose, day 1, tucatinib alone; quantity = AUC(0-inf) (geometric mean); result = 439 ng·h/mL
SMILES = N[C@@H](CC(=O)N1CCn2c(nnc2C(F)(F)F)C1)Cc1cc(F)c(F)cc1F; test system = human, female, plasma; conditions = oral, 100 mg single dose; quantity = AUC(0-inf) divided by body mass index; result = 171 ± 25.6 ng·h/mL
SMILES = CC(C)c1nc(N(C)S(C)(=O)=O)nc(-c2ccc(F)cc2)c1/C=C/[C@@H](O)C[C@@H](O)CC(=O)O; test system = human; conditions = oral, dose not given, together with: omaveloxolone; how to read = reference: substrate alone; quantity = AUC(0-inf) decrease; result = 31%
SMILES = Cc1cc(C)c(CNC(=O)c2cc(Cl)c3c(c2C)O[C@@](C)([C@H]2CC[C@H](N(C)C)CC2)O3)c(=O)[nH]1; assay = geometric LS mean; test system = healthy male humans, plasma; conditions = oral, 25 mg, alone, itraconazole DDI study reference; quantity = AUC(0-inf); result = 760 ng·h/mL
SMILES = C=CC(=O)N(C)CCOc1c(N)ncnc1-c1cc(F)cc(NC(=O)c2ccc(C3CC3)cc2F)c1C; test system = human, whole blood; conditions = oral, 30 mg, single ascending dose; quantity = AUC(0-inf); result = 77.5 ng·h/mL
SMILES = CC(C)c1nc(N(C)S(C)(=O)=O)nc(-c2ccc(F)cc2)c1/C=C/[C@@H](O)C[C@@H](O)CC(=O)O; test system = healthy human subjects; conditions = oral, 10 mg, together with: fruquintinib 5 mg; how to read = reference: fruquintinib alone; quantity = AUC(0-inf) decrease; result = ~19%
SMILES = C=CC(=O)N(C)CCOc1c(N)ncnc1-c1cc(F)cc(NC(=O)c2ccc(C3CC3)cc2F)c1C; test system = human; conditions = oral, 20 mg, day 7, median, together with: ritonavir; quantity = AUC(0-inf) per dose; result = 21.6 ng·h/mL/mg
SMILES = C[C@H](Oc1ccc(Br)cc1-c1ccon1)C(=O)O; test system = human, plasma; conditions = 800 mg single dose; how to read = reference: fed over fasted; quantity = AUC(0-inf) ratio; result = 0.95
SMILES = Cn1cncc1[C@@](N)(c1ccc(Cl)cc1)c1ccc2c(c1)c(-c1cccc(Cl)c1)cc(=O)n2C; test system = healthy humans, plasma; conditions = oral, 300 mg, together with: rabeprazole; how to read = reference: alone; quantity = AUC(0-inf) decrease; result = 20%
SMILES = CC1(C)CC[C@]2(NC(=O)C(C)(F)F)CC[C@]3(C)[C@H](C(=O)C=C4[C@@]5(C)C=C(C#N)C(=O)C(C)(C)[C@@H]5CC[C@]43C)[C@@H]2C1; test system = human, plasma; conditions = oral, dose not given, together with: efavirenz; how to read = reference: without efavirenz; quantity = AUC(0-inf) decrease; result = 48.5%
SMILES = C[C@H]1CN(C(=O)CC#N)[C@]12CCN(c1ncnc3[nH]ccc13)C2; test system = healthy human, plasma; conditions = oral, 6 mg single, median; quantity = AUC(0-inf); result = 215 ng·h/mL
SMILES = NC[C@@]1(CC(=O)O)[C@@H]2CC[C@H]3C[C@@H]2[C@@H]1C3; test system = human, moderate renal impairment, plasma; conditions = dose not given; how to read = reference: normal renal function; quantity = AUC(0-inf) increase; result = 120%
SMILES = CO[C@]1(C(=O)N[C@@H](C)c2ccc(-n3cc(F)cn3)nc2)CC[C@H](c2nc(C)cc(Nc3cc(C)[nH]n3)n2)CC1; test system = human, plasma; conditions = oral, 200 mg single dose, together with: high-fat meal; how to read = reference: fasted; quantity = AUC(0-inf) increase; result = 122%
SMILES = N[C@]1(C(=O)O)[C@H]2[C@@H](C[C@@H]1F)[C@@H]2C(=O)O; test system = human, both sexes, plasma; conditions = oral, 20 mg, single dose; how to read = reference: fed over fasted; quantity = AUC(0-inf) ratio; result = 0.817
SMILES = C=CC(=O)NC1CCN(c2ncc3ncnc(Nc4ccc(Oc5ccc6c(c5)ncn6C)c(C)c4)c3n2)CC1; test system = healthy male humans; conditions = oral, dose not given, together with: carbamazepine; how to read = reference: with over without carbamazepine; quantity = AUC(0-inf) ratio; result = 36.5%
SMILES = N[C@@H]1c2cccnc2[C@H](OC(=O)N2CCC(n3c(=O)[nH]c4ncccc43)CC2)CC[C@H]1c1cccc(F)c1F; test system = human, plasma; conditions = oral, 75 mg single dose, together with: rifampin; how to read = reference: compound alone; quantity = AUC(0-inf) decrease; result = 81%
SMILES = CC(C)[C@@H]1CC[C@@H](C)C[C@H]1OC(=O)O[C@@H](C)OC(=O)[C@H]1[C@@H]2C[C@H](F)[C@@](N)(C(=O)O)[C@@H]21; test system = human, plasma; conditions = oral, 20 mg, single dose; how to read = reference: fed over fasted; quantity = AUC(0-inf) ratio; result = 0.963

A few entries again:
SMILES = CC(C)c1nc(N(C)S(C)(=O)=O)nc(-c2ccc(F)cc2)c1/C=C/[C@@H](O)C[C@@H](O)CC(=O)O; test system = human; conditions = oral, dose not given, together with: omaveloxolone; how to read = reference: substrate alone; quantity = AUC(0-inf) decrease; result = 31%
SMILES = Cc1cc(C)c(CNC(=O)c2cc(Cl)c3c(c2C)O[C@@](C)([C@H]2CC[C@H](N(C)C)CC2)O3)c(=O)[nH]1; assay = geometric LS mean; test system = healthy male humans, plasma; conditions = oral, 25 mg, alone, itraconazole DDI study reference; quantity = AUC(0-inf); result = 760 ng·h/mL
